# Assay results gathered from unrelated publications.
# Compare with care: the assays were run in different laboratories.
Structure (SMILES),assay,test system,conditions,endpoint,result
COc1ncnn2ccc(-c3cnc4nc(C)n(Cc5nnc([C@@H](C)F)o5)c4c3)c12,,human,"oral, dose not given, grade 3",patients with pyrexia,0%
Cc1cn([C@H]2O[C@@H](CO[P@@](=O)(N[C@@H](C)C(=O)OC(C)C)Oc3ccccc3)[C@H](O)[C@H]2F)c(=O)[nH]c1=O,measured: grade 1/2,human,25 mg,patients with ALT/AST elevation,0%
C=CC(=O)Nc1cc(Nc2nccc(Nc3cc(Cl)c(F)cc3C(C)(C)O)n2)c(OC)cc1N1CC[C@@H](N(C)C)C1,,human patients,"oral, 200 mg, treatment-emergent adverse events",patients with diarrhoea,62.5%
COc1ccc(-c2c(-c3ccc(C#N)c(F)c3)nc(N3CCC(N)CC3)n(C)c2=O)cc1F,measured: decreased appetite,human patients,"oral, dose not given, dose escalation",patients with serious TEAE,2%
N[C@@H]1c2ccccc2OC12CCN(c1cnc3c(N4CCCc5ncccc54)n[nH]c3n1)CC2,measured: Constipation,human advanced or metastatic solid tumours,"oral, 60 mg once daily, phase Ia pooled cohort",patients with treatment-emergent adverse event,28%
O=C1Nc2cc3[nH]nc(-c4ccncc4)c3cc2CN1Cc1ccccc1,CTCAE v4.03,"human, relapsed or refractory advanced solid tumours","intravenous, 0.9 mg/kg, pooled schedules",patients with vomiting,0%
CN(C)C(=O)c1cc2cnc(Nc3ccc(N4CCNCC4)cn3)nc2n1C1CCCC1,measured: pulmonary embolism,"human, HR+/HER2− advanced breast cancer","oral, dose not given, grade 4, CTCAE v4.03",patients with adverse event,0.3%
C[C@]1(O)C[C@@](N)(c2ccc(-c3nc4n(c3-c3ccccc3)COc3ccncc3-4)cc2)C1,,"human, advanced or metastatic solid tumours","16 mg once daily, phase I dose escalation",patients with TEAE,100%
C[C@@H]1OC(=O)NN=C1c1ccc(-c2ccc(F)cc2)c(C(F)(F)F)c1,"phase I trial, measured: muscle spasms worst grade 1",human patients,20 mg loading then 1 mg daily,patients with adverse event,0%

# A few entries again:
Structure (SMILES),assay,test system,conditions,endpoint,result
N[C@@H]1c2ccccc2OC12CCN(c1cnc3c(N4CCCc5ncccc54)n[nH]c3n1)CC2,measured: Constipation,human advanced or metastatic solid tumours,"oral, 60 mg once daily, phase Ia pooled cohort",patients with treatment-emergent adverse event,28%
